Results of several laboratories.
Lines come from different studies, so protocols differ. Several values in a cell are separate wells, animals, samples, runs or records. ± gives the spread as reported.

With `Oc1cc2c(cc1O)C(Cc1ccccc1)NCC2` (stereo not drawn) the Fe2+ chelation was 90.61 ± 0.71% (ferrozine; cell-free; 100 µM, DMSO solvent).
`O=C(CCCCCCc1ccccc1)c1ncc(-c2ccccn2)o1`: cold allodynia “decreased” (mouse, chronic constriction injury, ipsilateral paw; i.p., 30 mg/kg, 1, 3, 6 h).
`COc1cc(Nc2ncc3c(n2)-c2ccc(Cl)cc2C(c2c(F)cccc2OC)=NC3)ccc1C(=O)O` — result for “median response score”: 8 (female NOD/scid mice, ALL-19 B-precursor ALL xenograft; 20.8 mg/kg, 5 days weekly, score scale 0 to 10; direction not given).
For `Cn1cc([C@H]2C[C@H]3CSC(N)=N[C@@]3(c3ccc(F)cc3F)CO2)cn1`, “brain Aβ40 level” read 2.96 ng/g (measured: Aβx-40; wild-type mouse, brain; subcutaneous, 10 mg/kg, 13 h).
`N#Cc1ccc2c(c1)[C@H]1CCCN(C(=O)c3ccc4[nH]cnc4c3)[C@H]1C2` — result for “total urinary corticosteroid excretion”: 156% (T2DM patients with overweight or obesity, urine; oral, 160 mg, day 1, 0-24 h, multiple dosing, adjusted geometric mean; relative to: baseline day -1, -24-0 h).
The IFN-γ concentration of `COc1cccc2c(N3CCC(CCP(=O)(O)O)CC3)ncnc12` is reported as roughly 5 pg/mL (mouse, EMT6 tumour, serum; 50 mg/kg).
`C=CCn1c(=O)c2cnc(Nc3ccc(N4CCN(C)CC4)cc3)nc2n1-c1ccc2c(n1)[C@@](O)(CC)CC2`: “tumour growth inhibition” 133% (MCF7 xenograft, BALB/c nude mice; oral, 80 mg/kg once daily x 22, day 28; relative to: vehicle).
Under “p4EBP1 change from baseline”, `CO[C@H]1CC[C@H](N2C(=O)CNc3ncc(-c4ccc(C(C)(C)O)nc4)nc32)CC1` is recorded as -36.3% (flow cytometry; stimulated T cells, human, blood; 60 mg single dose, 1.5 h, median; relative to: baseline).
`O=C(O)CNC(=O)Cc1ccccc1` gave a sarcomere length of 1.72 µm (ventricular cardiomyocytes, C57BL/6 mouse; dose not given, 0.344 s).
`N#Cc1ccn2c(-c3ccncc3)c(-c3ccc(F)cc3)nc2c1`: “log2 fold change” -0.294 (kinase binding, competitor, MIB/MS competition, measured: FPK1; Candida albicans cell lysate; 10 µM; relative to: DMSO).
For `CC(C)NCC(O)c1ccc(O)c(O)c1` (stereo not drawn), the sarcomere length was 1.55 µm (ventricular cardiomyocytes, C57BL/6 mouse; dose not given, 0.568 s).
Under “log2 fold change”, `c1ccc(-c2n[nH]cc2-c2ccnc3ccccc23)nc1` is recorded as 1.74 (kinase binding, competitor, MIB/MS competition, measured: ATG1; Candida albicans cell lysate; 10 µM; relative to: DMSO).
Under “change in level”, `COc1nc(-c2cc(C)c(N[C@@H](C)c3cc(F)cc(F)c3)nn2)ccc1-n1cnc(C)c1` is recorded as 88% (measured: Aβ42; rat Sprague-Dawley male, CSF; oral, 50 mg/kg daily for 9 days, 4 h after dose; relative to: vehicle).
`NC(=O)c1cnc2[nH]ccc2c1N[C@@H]1[C@@H]2CC3C[C@H]1C[C@@](O)(C3)C2` — result for “total memory T-cell change”: -0.02% (flow cytometry; Caucasian healthy men, blood; oral, 60 mg single dose, 24 h; relative to: baseline).
`N#Cc1ccc2c(c1)[C@H]1CCCN(C(=O)c3ccc4[nH]cnc4c3)[C@H]1C2` — result for “change from baseline”: 11.3 pmol/L (measured: fasting plasma insulin; human, Phase II trial; oral, 240 mg once daily, day 28, adjusted mean, SE).
Under “median VAS change”, `N=C(N)NCCC[C@H](NC(=O)[C@H](CCCNC(=N)N)NC(=O)[C@H](CCCCN)NC(=O)[C@H](CCC(N)=O)NC(=O)[C@H](CCCCN)NC(=O)[C@H](Cc1ccc(O)cc1)NC(=O)[C@@H](N)CCCCN)C(=O)N[C@@H](CO)C(=O)N[C@@H](Cc1ccc(O)cc1)C(=O)N[C@@H](CCCCN)C(=O)O` is recorded as -17 (dentin hypersensitivity patients aged 30-40 years; 10 µg/tooth, day 36, unit not given; relative to: baseline).
With `C[C@H]1[C@H](OC(=O)CCC(=O)O)O[C@@H]2O[C@@]3(C)CC[C@H]4[C@H](C)CC[C@@H]1[C@@]24OO3` the median survival was 17 days (MOLM-13 xenograft mice; 100 mg/kg twice daily, 9 days).
`COC[C@@H](c1ccc(C(F)(F)F)cc1)N1CCN(C2(C)CCN(C(=O)c3c(C)ncnc3C)CC2)C[C@@H]1C` — result for “change in HIV-1 RNA”: -0.89 log10 copies/mL (HIV-1 patients, plasma; 5 mg, week 2; relative to: baseline).
For `C=CC(=O)Nc1cc(Nc2ncc(C(=O)OC(C)C)c(-c3cn(C)c4ccccc34)n2)c(OC)cc1N(C)CCN(C)C`, “responders with duration ≥ 12 months” read 19% (EGFR-mutant NSCLC patients; dose not given).
`CC(C)c1c(C(=O)Nc2ccccc2)c(-c2ccccc2)c(-c2ccc(F)cc2)n1CC[C@@H](O)C[C@@H](O)CC(=O)O` — result for “aortic plaque burden reduction”: 63% (ApoE-/- mouse; oral gavage, dose not given).
`CC1(C)CCC(c2ccc(Cl)cc2)=C(CN2CCN(c3ccc(C(=O)NS(=O)(=O)c4ccc(N[C@H](CCN5CCOCC5)CSc5ccccc5)c(S(=O)(=O)C(F)(F)F)c4)cc3)CC2)C1` has an EC50 of 39 nM (cell killing; canine blood CD3+ T cells, dog 30; 24 h).
For `CN(C(=O)n1cnc(-c2ccc[n+]([O-])c2)c1)C1CCCCC1`, “change in licking score” read -77% (mice, formalin paw test; 1 mg/kg, late phase, together with: anandamide 5 mg/kg i.p.; relative to: vehicle, direction not given).
Under “delta delta Ct”, `COc1ccc(-c2cncc(N[C@@H](C)c3cccc(NC(=O)c4cncc(C)c4)c3)n2)cc1OC` is recorded as -3.67 (measured: rno-miR-381-3p; rat SU5416/hypoxia model, lung; dose not given, unit not given; relative to: SU5416/hypoxia vehicle).
The histology score of `Cc1nn(-c2nc3c(F)cc(F)cc3s2)c(O)c1C(c1ccc(C(F)(F)F)cc1)c1c(C)nn(-c2nc3c(F)cc(F)cc3s2)c1O` is reported as 0 (measured: pancreatic haemorrhage; mouse, cerulein-induced acute pancreatitis; 25 mg/kg; direction not given).
For `CCN1[C@@H](C(=O)NC23CCC(C(=O)O)(CC2)CC3)[C@H](c2cccc(Cl)c2F)[C@]2(C(=O)Nc3cc(Cl)ccc32)C12CCCCC2`, “CD19+ cells in blood” read “increased” (human, peripheral blood; dose not given).
For `O=C(COc1ccc(Cl)cc1)NC12CC(c3nnc([C@H]4C[C@@H](OC(F)(F)F)C4)o3)(C1)C2`, “ATF4 protein change” read -11% (healthy human, PBMC; oral, 15 mg single dose, day 1, 4 h post-dose, median, together with: sodium arsenite ex vivo; relative to: baseline).
Under “difference from placebo”, `C[C@H](Oc1ccc(Br)cc1-c1ccon1)C(=O)O` is recorded as 4.97% (response peak; human, tibialis anterior muscle; 200 mg, 30 Hz+30 s).
Under “embryos reaching 8-cell”, `O=S(=O)(NCCNC/C=C/c1ccc(Br)cc1)c1cccc2cnccc12` is recorded as 0% (mouse zygotes; 20 µM, 24 h post-hCG).
`Cc1ccc([C@@H]2O[C@H](CO)[C@@H](O)[C@H](O)[C@H]2O)cc1Cc1ccc(-c2ccc(F)cc2)s1`: “change in fasting plasma glucose” -32 mg/dL (Japanese type 2 diabetes patients; 200 mg, day 2; relative to: day 1).
`COc1ccc(Oc2cc(N(C)CCOc3ccc(CC4SC(=O)NC4=O)cc3)ncn2)cc1` (stereo not drawn): “total cholesterol reduction” 13.7 mg/dL (type 2 diabetes patients; 0.5 mg once daily, 12 weeks; relative to: baseline).
`NNC(=O)c1ccncc1` has an IL-1β level of 73.4 pg/mL and 74.1 pg/mL and 77.6 pg/mL (ELISA; Mycobacterium marinum-infected mice, thymus; intraduodenal, 10 mg/kg three times daily, 3 days post infection).
For `Cc1cc(C)c(CNC(=O)c2cc(Cl)c3c(c2C)O[C@@](C)([C@H]2CC[C@H](N(C)C)CC2)O3)c(=O)[nH]1`, “best overall response CR” read 27% (IWG 2007 criteria; human, relapsed/refractory PTCL not otherwise specified; dose not given).
`Cn1cc(Nc2nccc(-c3ccc4c(c3)CN(C3COC3)CC[C@H]4NC(=O)c3cn(C(C)(C)C)nn3)n2)cn1` — result for “pathway activation z-score”: -0.277 (measured: pyrimidine ribonucleotide salvage; splenic B cells, mice; 30 mg/kg, IgD-activated in vivo; relative to: vehicle, direction not given).
`OC(CCN1CCCCC1)(c1ccccc1)C1CC2C=CC1C2` (stereo not drawn) — result for “change in EEG Beta1-power Pz-O2”: -1.7% (resting-state EEG; healthy elderly humans; oral, 2 mg, eyes open, LS mean; relative to: baseline).
`Cc1ccc(C(=O)Nc2ccc(CN3CCN(C)CC3)c(C(F)(F)F)c2)cc1C#Cc1cnc2cccnn12` has a lag time of 237 s (platelet aggregation; platelet-rich plasma; 1 µM, DMSO 130.6, together with: collagen 2 mg/mL).
`C[C@H]1C[C@H]2CSC(N)=N[C@@]2(c2nc(NC(=O)c3ccc(OC(F)F)cn3)cs2)CO1` — result for “percent change from baseline”: -58.2% (measured: Aβx-40; healthy adults, plasma; 160 mg single dose, 8 h post-dose; relative to: placebo).

Excerpt of the above:
`NC(=O)c1cnc2[nH]ccc2c1N[C@@H]1[C@@H]2CC3C[C@H]1C[C@@](O)(C3)C2` — result for “total memory T-cell change”: -0.02% (flow cytometry; Caucasian healthy men, blood; oral, 60 mg single dose, 24 h; relative to: baseline).
For `C=CC(=O)Nc1cc(Nc2ncc(C(=O)OC(C)C)c(-c3cn(C)c4ccccc34)n2)c(OC)cc1N(C)CCN(C)C`, “responders with duration ≥ 12 months” read 19% (EGFR-mutant NSCLC patients; dose not given).
With `C[C@H]1[C@H](OC(=O)CCC(=O)O)O[C@@H]2O[C@@]3(C)CC[C@H]4[C@H](C)CC[C@@H]1[C@@]24OO3` the median survival was 17 days (MOLM-13 xenograft mice; 100 mg/kg twice daily, 9 days).
